Results pooled from the literature.
Compare with care: the assays were run in different laboratories. “And” joins repeats or separate records; there may be more than shown. ± marks the error that the study gave.
Technique: steady-state kinetics
B1: enzyme E217L/L163H/N249W (Thermobifida fusca, UniProt Q47RK4); chain MTDVYILDAVRTPFGRYGGALSGIRPDDLAAHVLRALAERSPGLDPAAVDDVFFGDANGAGEDNRNVARMAALLAGWPTSVPGVTLNRLCGSGMESVIAANRAIAVGDASLAVAGGVESMSRAPWVLPKPAQGFPTGHETLYSTTLGWRMVNPAMPEQWTVSHGESTEQVAATYGISRAEQDAFALRSHERAARAWAEGVFDAEITQIPGAELERDLSIRETSAEKLAALKPAFRPDGTITAGNASPLWDGAAALLIGDAAAAERVGREPLARIVSRGVAAVDPDVFGIGPVQAAEIALRRAGIGWDDLSVVELNEAFAAQSLACLKLWPDLDPEIVNPNGGAIAIGHPLGASGARIVGTLAHELHRRGGGWGLAAICIGVGQGLAVVLHR
B2: Lxyl-p1-1 A72T (Lentinula edodes, UniProt G8GLN9); chain YFSGLGLGSERSIFRRDLNSTGDESNSTQWPAPLANGGKSWASAFKKAKSTVTEMTVEELANITSGVIGLCVGVTGAVTRLGIPELCLQDGPIGPRGVHGSSQFPAGLTVAATWDRTLMYARARGMGQEFHDQGVHIALAPVTGGPLGRTPLNGRGWEGTFADPYACGEASYQSVKGLTDAGVATVSKHWIAYEQETSRNLYIEFDGVSQADIQLPISSNVDDLTMHELYMWSFAEAVRAGTNHIMCSYNRINNTHSCNNAKGLNQLLKTELNFQGGVVSDWGGQWDSVLSAENGLDVGMPGEGFLGELGDFWGTTLADLINNGTVSEDLVRDKVVRLLTGYYYLGQDINPPPPFVYNTIGAPTLNATSGYRNVRKPGTAELIKEIGSASVTLLKNTGSLPLKHPQRIAVLGNDATYNVLGPNACGLANSACDIDNLNGTLTTGGGSGSALSPYTITPLEALQKRAIEDNAEIAAVVANSNTTTGAEDAIAALLPDADVTFVFLNRYSEEGADAPDFSLGGDGDNLMDLAVTYSSNVVVVIHTTGVVDIEKWADNPNVTAILVAYLPGQEAGNSLVPVLYGDVAPSGKLPWTWGKSIDDYVPNGVVYTDAYSPQSNFTEGVFIDYRWFDKMGITPRYEFGFGLSYTTFTYSNLIVDHGRWAKDYSSVMETAEPFAEWDGTNSLYDVIFTVFATITNTGNLTGSEVAQLYISIPGDNQPVRQLRGFDKIKDLPVGDSAVVTFPIRRKDVSSWSVVDQLWYVPNGDFLISVGGSSRDLPLNTTWTP
B3: enzyme R237K (Acetivibrio thermocellus, UniProt A3DJ38); chain MKLTIPELSLVVLIGSSGSGKSTFAKKHFKPTEVISSDFCRGLVSDDENDQTVTGAAFDVLHYIVSKRLQLGKLTVVDATNVQESARKPLIEIAKDYHCFPVAVVFNLPEKVCQERNKNRTDRQVEEYVIRKHTQQLKKSIKGLQREGFRYVYILNSPEEVEEVVFERQPLWNNKKDEHGPFDIIGDIHGCYDELKMLLEKLGYLIEEVEGGVGSGKYRVTHPEGRKVLFLGDLVDKGPKITEVLKLVMGMVKSGIALCVPGNHDVKLLRKLNGRDVQITHGLDRTLEQLAKEPQEFIEEVKAFIDGLVSHYVLDDGKLVVAHAGMKEEFQGRGSGKVREFALYGETTGETDEYGLPVRYDWASDYRGKALVVYGHTPQAEVLKVNNTINIDTGCVFGGKLTAYRYPEREIVDVKALKTYYEPAKPFLPKEDMAERFEARTDNDILDINDVLGKKIITTRLMSSITIHEENSIAALEVMSRFAADPHWLIYLPPTMSPCETSKKEGMLEHPIEAFEYFRTRGVGKVVCEQKHMGSRAVVIVCKDSQVAEKRFGVLDGTAGICYTRTGRHFFDDMQLEAELIDRVRKVLDKSGFWGDFNTDWVCLDCELMPWSAKAQKLLEEQYSAVGISGRVVLDEAVKLLKQASLNKTVSFDVSRQTSGKNADINELLQRFTERSEMMQKYVEAYRKYCWPVNSIDDLKLAPFHILATEGKVHSDKNHIWHMDTIAKYCTQDDSLIMATNHILVDVTDAESVDKGIKWWEDLTASGGEGMVVKPYDFIVKNGRELLQPAVKCRGREYLRIIYGPEYTMDENIERLRNRAVGKKRSLALREFSLGMEALERFVRNEPLYRVHECVFGVLALESEPVDPRL
B4: protein Y24F (uncultured bacterium HF130_AEPn_1, UniProt D0E8I5); chain MSLSNSSKVSVLISLLEKSRDLDFIGEAINQLEHSLQCAYFAQRSGADNEMVLAALLHDLGHYCNDTSFEDMGGYGVWQHEKVGADYLRGLGFSERVACLIEGHVAAKRYLVSSKASYLKNLSDASRKTLEYQGGPMDEGERRLFEEREDFKDCLKIRAWDEKGKQTDLKVPGPEHYRKMMEEHLSENQN
B5: nitrilase (Rhodococcus rhodochrous, UniProt A4LA85); chain MVEYTNTFKVAAVQAQPVWFDAAKTVDKTVSIIAEAARNGCELVAFPEVFIPGYPYHIWVDSPLAGMAKFAVRYHENSLTMDSPHVQRLLDAARDHNIAVVVGISERDGGSLYMTQLIIDADGQLVARRRKLKPTHVERSVYGEGNGSDISVYDMPFARLGALNCWEHFQTLTKYAMYSMHEQVHVASWPGMSLYQPEVPAFGVDAQLTATRMYALEGQTFVVCTTQVVTPEAHEFFCENEEQRKLIGRGGGFARIIGPDGRDLATPLAEDEEGILYADIDLSAITLAKQAADPVGHYSRPDVLSLNFNQRRTTPVNTPLSTIHATHTFVPQFGALDGVRELNGADEQRALPSTHSDETDRATASI
B6: enzyme D418A (Limosilactobacillus reuteri, UniProt Q8GP32); chain SADTNIENNDSSTVQVTTGDNDIAVKSVTLGSGQVSAASDTTIRTSANANSASSAANTQNSNSQVASSAAITSSTSSAASSNNTDSKAAQENTNTAKNDDTQKAAPANESSEAKNEPAVNVNDSSAAKNDDQQSSKKNTTAKLNKDAENVVKKAGIDPNSLTDDQIKALNKMNFSKAAKSGTQMTYNDFQKIADTLIKQDGRYTVPFFKASEIKNMPAATTKDAQTNTIEPLDVWDSWPVQDVRTGQVANWNGYQLVIAMMGIPNQNDNHIYLLYNKYGDNELSHWKNVGPIFGYNSTAVSQEWSGSAVLNSDNSIQLFYTRVDTSDNNTNHQKIASATLYLTDNNGNVSLAQVANDHIVFEGDGYYYQTYDQWKATNKGAANIAMRDAHVIEDDNGDRYLVFEASTGLENYQGEDQIYNWLNYGGDDAFNIKSLFRILSNDDIKSRATWANAAIGILKLNKDEKNPKVAELYSPLISAPMVSDEIERPNVVKLGNKYYLFAATRLNRGSNDDAWMNANYAVGDNVAMVGYVADSLTGSYKPLNDSGVVLTASVPANWRTATYSYYAVPVAGKDDQVLVTSYMTNRNGVAGKGMDSTWAPSFLLQINPDNTTTVLAKMTNQGDWIWDDSSENLDMIGDLDSAALPGERDKPVDWDLIGYGLKP
Chain of UniProt Q8PWY1 (whole entry, looked up): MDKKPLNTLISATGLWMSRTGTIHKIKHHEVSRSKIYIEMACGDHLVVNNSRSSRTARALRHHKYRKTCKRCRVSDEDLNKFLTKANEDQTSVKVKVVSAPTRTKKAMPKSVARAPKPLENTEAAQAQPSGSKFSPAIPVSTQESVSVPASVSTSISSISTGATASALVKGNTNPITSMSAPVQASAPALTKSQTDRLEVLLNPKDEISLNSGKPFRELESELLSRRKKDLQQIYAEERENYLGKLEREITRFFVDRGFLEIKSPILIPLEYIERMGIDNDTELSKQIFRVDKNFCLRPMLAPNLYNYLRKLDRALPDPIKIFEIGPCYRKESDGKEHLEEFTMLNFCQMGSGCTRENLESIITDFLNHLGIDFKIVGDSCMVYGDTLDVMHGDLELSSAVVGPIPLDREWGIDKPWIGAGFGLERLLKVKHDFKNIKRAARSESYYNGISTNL
Chain of UniProt Q9HX72 (whole entry, looked up): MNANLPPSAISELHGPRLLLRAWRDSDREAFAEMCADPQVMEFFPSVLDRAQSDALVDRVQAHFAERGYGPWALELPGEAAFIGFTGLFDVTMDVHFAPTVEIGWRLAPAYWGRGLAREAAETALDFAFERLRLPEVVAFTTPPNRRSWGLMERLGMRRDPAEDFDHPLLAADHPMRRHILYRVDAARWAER

With `B1 (enzyme E217L/L163H/N249W)` the kcat was 0.00433 ± 0.00217 s⁻¹ (CC(=O)SCCNC(=O)CCNC(=O)[C@H](O)C(C)(C)COP(=O)(O)OP(=O)(O)OC[C@H]1O[C@@H](n2cnc3c(N)ncnc32)[C@H](O)[C@@H]1OP(=O)(O)O; pH 7.4, 37 °C).
The kcat of `CPB2 (Homo sapiens, UniProt Q96IY4)` is reported as 2.7 ± 0.1 s⁻¹ (C[C@H](NC(=O)[C@H](Cc1ccccc1)NC(=O)[C@H](CCC(N)=O)NC(=O)CNC(=O)[C@@H]1CCCN1C(=O)[C@H](Cc1ccccc1)NC(=O)[C@@H](N)Cc1ccc(O)cc1)C(=O)N[C@@H](Cc1ccccc1)C(=O)N[C@@H](CO)C(=O)N[C@@H](CCCCN)C(=O)O; 37 °C).
`B2 (Lxyl-p1-1 A72T)` gave a kcat of 5.35 ± 0.51 s⁻¹ ([H][C@]12[C@H](OC(=O)c3ccccc3)[C@]3(O)C[C@H](OC(=O)[C@H](O)[C@@H](NC(=O)c4ccccc4)c4ccccc4)C(C)=C([C@@H](O)C(=O)[C@]1(C)[C@@H](O[C@@H]1OC[C@@H](O)[C@H](O)[C@H]1O)C[C@@]1([H])OC[C@@]21OC(C)=O)C3(C)C).
With `B3 (enzyme R237K)` the kcat was 26.2 ± 1.57 s⁻¹ (Nc1ncnc2c1ncn2[C@@H]1O[C@H](CO)[C@H]2OP(=O)(O)O[C@H]21; pH 7.5, 45 °C).
The kcat of `pvdF (Pseudomonas aeruginosa, UniProt Q9I184)` is reported as 1.7 ± 0.1 s⁻¹ (Nc1nc(O)c2cc(CN(C=O)c3ccc(C(=O)N[C@@H](CCC(=O)O)C(=O)O)cc3)ccc2n1; pH 7.4, 25 °C).
For `B4 (protein Y24F)`, the kcat was 4.5 s⁻¹ and 2 s⁻¹ (NC[C@H](O)P(=O)(O)O; pH 7, 25 °C, NaCl 150 mM, together with: O2, Fe(II) 100 µM, ascorbate 100 µM).
`PA3944 (Pseudomonas aeruginosa, UniProt Q9HX72)` gave a kcat of 0.391 s⁻¹ (NCC[C@H](N)C(=O)O; pH 8, 37 °C).
With `B5 (nitrilase)` the kcat was 0.00046 ± 4e-05 s⁻¹ (N#CCCCCC#N; pH 7.5, 25 °C).
With `B6 (enzyme D418A)` the kcat was 360 ± 10 s⁻¹ (OC[C@H]1O[C@@](CO)(O[C@H]2O[C@H](CO)[C@@H](O)[C@H](O)[C@H]2O)[C@@H](O)[C@@H]1O; pH 5.5, 50 °C, apparent).
`pylS (Methanosarcina mazei, UniProt Q8PWY1)` gave a kcat of 0.001 ± 0.0001 s⁻¹ (C=CCOC(=O)NCCCC[C@H](N)C(=O)O; pH 7.2, 37 °C, apparent).

Some of these lines once more:
With `B6 (enzyme D418A)` the kcat was 360 ± 10 s⁻¹ (OC[C@H]1O[C@@](CO)(O[C@H]2O[C@H](CO)[C@@H](O)[C@H](O)[C@H]2O)[C@@H](O)[C@@H]1O; pH 5.5, 50 °C, apparent).
